Results of several laboratories.
Compare with care: the assays were run in different laboratories. “And” joins repeats or separate records; there may be more than shown. ± gives the spread as reported.

| SMILES | target or system | assay | system | setting | scale | quantity | result |
| --- | --- | --- | --- | --- | --- | --- | --- |
| CC(C)C[C@H](NC(=O)CNC(=O)[C@H](CCC(N)=O)NC(=O)[C@H](CC(C)C)NC(=O)[C@H](CC(C)C)NC(=O)[C@H](CCCNC(=N)N)NC(=O)[C@H](CCC(N)=O)NC(=O)[C@H](CC(C)C)NC(=O)[C@H](CCCNC(=N)N)NC(=O)[C@H](C)NC(=O)CNC(=O)[C@H](CCC(=O)O)NC(=O)[C@H](CCCNC(=N)N)NC(=O)[C@H](CC(C)C)NC(=O)[C@H](CCCNC(=N)N)NC(=O)[C@H](CO)NC(=O)[C@H](CC(C)C)NC(=O)[C@H](CCC(=O)O)NC(=O)[C@H](CO)NC(=O)[C@@H](NC(=O)[C@H](Cc1ccccc1)NC(=O)[C@@H](NC(=O)CNC(=O)[C@H](CC(=O)O)NC(=O)C(C)(C)NC(=O)[C@@H](N)Cc1c[nH]cn1)[C@@H](C)O)[C@@H](C)O)C(=O)N[C@@H](CC(C)C)C(=O)N[C@@H](CCC(N)=O)C(=O)NCC(=O)N[C@@H](CC(C)C)C(=O)N[C@H](C(=O)NCC(=O)N[C@@H](CCCCNC(=O)COCCOCCNC(=O)COCCOCCNC(=O)CC[C@H](NC(=O)CCCCCCCCCCCCCCCCC(=O)O)C(=O)O)C(N)=O)C(C)C |  |  | DIO C57BL/6J mice | dose not given, from day 28, together with: GLP-1R agonist co-treatment |  | dark-phase energy expenditure | increased |
| COc1cc(O)ccc1CCC(c1ccc(O)cc1)c1cc2c(c(C)c1O)OC(c1ccc(O)cc1)CC2 (mixture of isomers) |  |  | human blood | 0.3 µM, together with: A23187 |  | 5-HETE level | 3880 ± 1760 pg/mL |
| C=CC(=O)Nc1cccc(Cn2ncc3cnc(Nc4cnn(CCOC)c4)nc32)c1 | ACVR2A human | binding, KINOMEscan |  | 100 nM | lower = stronger binding | percent of control | 98% |
| CN1CCC[C@]1(C)/C=C/S(=O)(=O)NC(=O)Nc1c2c(cc3c1CCC3)CCC2 |  |  | human, whole blood ex vivo | 100 mg twice daily, day 14, 12 h, multiple ascending dose, together with: LPS and ATP |  | IL-18 inhibition | 100% |
| COC1OC(C)C(OS(=O)(=O)O)C(OC2OC(C)C(OS(=O)(=O)O)C(OC3OC(C)C(OS(=O)(=O)O)C(OC4OC(C)C(OS(=O)(=O)O)C(OC5OC(C)C(OS(=O)(=O)O)C(OC6OC(C)C(OS(=O)(=O)O)C(OC7OC(C)C(OS(=O)(=O)O)C(OS(=O)(=O)O)C7O)C6O)C5O)C4O)C3O)C2O)C1O (stereo not drawn) |  |  | human plasma | 128 µg/mL | baseline: control | thrombin time prolongation | 0.9 fold |
| Cc1ncsc1-c1ccc(C(C)NC(=O)C2CC(O)CN2C(=O)C(NC(=O)CCCCCCCCCCN2CCCC(Nc3ncc(Cl)c(Nc4ccccc4S(=O)(=O)C(C)C)n3)C2)C(C)(C)C)cc1 (stereo not drawn) | 22Rv1 | RNA-seq, item: SLC20A2 mRNA |  | concentration not given | baseline: DMSO | log2 fold change | -1.04 |
| CCCCCc1ccc(S(=O)(=O)N2CC2C(=O)OC)cc1 (stereo not drawn) |  |  | mouse, Lewis lung carcinoma | intraperitoneal, 5 mg/kg, 16 doses, day 12 |  | tumour growth inhibition | 71% |
| S=C(S)OC1CC2CC1C1CCCC21 (stereo not drawn) |  | hot plate | male ICR-CD1 mice | icv, 75 µg/animal, 15 min |  | maximum possible effect | 18.4% and 15.1% and 14.6% and 16.7% |
| COC1CN([C@H]2CC[C@H]([C@@]3(C)Oc4c(Cl)cc(C(=O)NCc5c(SC)cc(C)[nH]c5=O)c(C)c4O3)CC2)C1 |  | RNA-seq, item: GCLC | human cancer patients, whole blood | dose not given, 24 h, PRC2 target gene | baseline: pretreatment sample | log2 fold change | 1.06 |
| COC1OC(C)C(OC2OC(C)C(O)C(OC3OC(C)C(OC4OC(C)C(O)C(OC5OC(C)C(OC6OC(C)C(O)C(OC7OC(C)C(O)C(OS(=O)(=O)O)C7OS(=O)(=O)O)C6OS(=O)(=O)O)C(OS(=O)(=O)O)C5OS(=O)(=O)O)C4OS(=O)(=O)O)C(OS(=O)(=O)O)C3OS(=O)(=O)O)C2OS(=O)(=O)O)C(OS(=O)(=O)O)C1OS(=O)(=O)O (stereo not drawn) |  |  | human plasma | 128 µg/mL |  | thrombin time | 11.1 ± 0.8 s |
| O=C(N[C@@H](Cc1coc2ccccc12)B(O)O)[C@@H]1C[C@H]2CC[C@@H]1O2 |  | tumour growth | U266B1, mouse, U266B1 multiple myeloma xenograft | oral, 1 mg/kg daily |  | T/C | -81% |
| COc1cc2c(NC3CCN(C(C)C)CC3)cc(N3CCOCC3)nc2cc1OCCCN1CCCC1 |  | TMT quantitative proteomics, item: GOT1 (cytoplasmic) | FAD AD model mice, hippocampus | dose not given |  | normalised protein abundance | -0.0802 and -0.0694 and -0.0795 and -0.0878 and -0.0669 and -0.0671 and -0.0719 and -0.0871 |
| COC1OC(C)C(OC2OC(C)C(O)C(OC3OC(C)C(OC4OC(C)C(O)C(OC5OC(C)C(OC6OC(C)C(O)C(OS(=O)(=O)O)C6OS(=O)(=O)O)C(OS(=O)(=O)O)C5OS(=O)(=O)O)C4OS(=O)(=O)O)C(OS(=O)(=O)O)C3OS(=O)(=O)O)C2OS(=O)(=O)O)C(OS(=O)(=O)O)C1OS(=O)(=O)O (stereo not drawn) |  |  | human plasma | 128 µg/mL | baseline: control | thrombin time prolongation | 1 fold |
| Cc1ccc(N(O)/N=N/c2ccc(S(=O)(=O)Nc3nccs3)cc2)cc1 |  | carrageenan-induced paw edema | Wistar rat | oral, 100 mg/kg, 0 h (baseline), together with: carrageenan 1% subplantar | higher = more edema | paw edema volume | 3.4 ± 0.91 a.u. |
| COC1OC(C)C(O)C(OC2OC(C)C(O)C(OC3OC(C)C(O)C(OC4OC(C)C(O)C(OC5OC(C)C(O)C(OC6OC(C)C(O)C(OC7OC(C)C(O)C(OC8OC(C)C(O)C(OC9OC(C)C(O)C(OC%10OC(C)C(O)C(OS(=O)(=O)O)C%10OS(=O)(=O)O)C9OS(=O)(=O)O)C8OS(=O)(=O)O)C7OS(=O)(=O)O)C6OS(=O)(=O)O)C5OS(=O)(=O)O)C4OS(=O)(=O)O)C3OS(=O)(=O)O)C2OS(=O)(=O)O)C1OS(=O)(=O)O (stereo not drawn) |  |  | human plasma | 128 µg/mL | baseline: control | thrombin time prolongation | 0.9 fold |
| O=CCNCCOn1c(=O)n(OCCNCCO)c(=O)n(OCCNCCOn2c(=O)n(OCCNCCO)c(=O)n(OCCNCCO)c2=O)c1=O |  | DPPH scavenging |  | 62.5 µg/mL |  | inhibition | 11.1% |
| COC1OC(C)C(OC2OC(C)C(OS(=O)(=O)O)C(OC3OC(C)C(OC4OC(C)C(OS(=O)(=O)O)C(OC5OC(C)C(OC6OC(C)C(OS(=O)(=O)O)C(OC7OC(C)C(OC8OC(C)C(OS(=O)(=O)O)C(OC9OC(C)C(OS(=O)(=O)O)C(OS(=O)(=O)O)C9O)C8O)C(OS(=O)(=O)O)C7O)C6O)C(OS(=O)(=O)O)C5O)C4O)C(OS(=O)(=O)O)C3O)C2O)C(OS(=O)(=O)O)C1O (stereo not drawn) |  |  | human plasma | 128 µg/mL | baseline: control | thrombin time prolongation | 1 fold |
| COc1ccc(C(=O)CCc2cc(C(CCc3ccc(O)cc3OC)c3ccc(O)cc3)c(O)cc2OC)cc1 (racemic) |  |  | human blood | 3 µM, together with: A23187 |  | 5-HETE level | 6670 ± 2180 pg/mL |
| COC1OC(C)C(OC2OC(C)C(OS(=O)(=O)O)C(OC3OC(C)C(OC4OC(C)C(OS(=O)(=O)O)C(OC5OC(C)C(OC6OC(C)C(OS(=O)(=O)O)C(OC7OC(C)C(OC8OC(C)C(OS(=O)(=O)O)C(OC9OC(C)C(OC%10OC(C)C(OS(=O)(=O)O)C(OC%11OC(C)C(OC%12OC(C)C(OS(=O)(=O)O)C(OS(=O)(=O)O)C%12O)C(OS(=O)(=O)O)C%11O)C%10O)C(OS(=O)(=O)O)C9O)C8O)C(OS(=O)(=O)O)C7O)C6O)C(OS(=O)(=O)O)C5O)C4O)C(OS(=O)(=O)O)C3O)C2O)C(OS(=O)(=O)O)C1O (stereo not drawn) |  |  | human plasma | 128 µg/mL |  | thrombin time | 10.4 ± 0.4 s |
| COc1cnc2cccc(N3CCc4c(cc(Cn5ccnc5)cc4-c4cn(C)nc4C(F)(F)F)C3=O)c2c1 |  |  | BALB/c nude mice, MV4-11 xenograft | intraperitoneal, 100 mg/kg, day 14 |  | tumour volume | 180 mm3 and 162 mm3 and 193 mm3 and 210 mm3 and 125 mm3 |
| CN(CCNCc1ccncc1[O-])CCNCc1ccncc1[O-].[Cl-].[Fe+3] |  | T1-weighted MRI 4.7 T | BALB/c mice | 0.10 mmol/kg |  | vena cava signal enhancement | ~50% |

Excerpt of the above:
| SMILES | target or system | assay | system | setting | scale | quantity | result |
| --- | --- | --- | --- | --- | --- | --- | --- |
| CCCCCc1ccc(S(=O)(=O)N2CC2C(=O)OC)cc1 (stereo not drawn) |  |  | mouse, Lewis lung carcinoma | intraperitoneal, 5 mg/kg, 16 doses, day 12 |  | tumour growth inhibition | 71% |
| S=C(S)OC1CC2CC1C1CCCC21 (stereo not drawn) |  | hot plate | male ICR-CD1 mice | icv, 75 µg/animal, 15 min |  | maximum possible effect | 18.4% and 15.1% and 14.6% and 16.7% |
